{"data": "Results of several laboratories", "note": "Every numbered part comes from another study and shows a few of its results, in no order."}
{"data": "Set 1", "target": "Prothrombin, mature alpha-thrombin (F2, Homo sapiens, UniProt P00734)", "method": "aptamer microarray, sandwich", "form": "DNA with 2'F-ANA", "sample": "in vitro", "concentration": "200 nM", "notes": "whole 15-mer aptamer, many near background", "together with": "Cy3 exosite-II aptamer, 400 nM", "reading": "higher = stronger binding"}
{"Sequence": "GGTTGGTGTGGTTGG (2'F-ANA at 1 2 4 5 6 7 8 9 10 12 14 15)", "mean fluorescence intensity [a.u.]": 67.2}
{"Sequence": "GGTTGGTGTGGTTGG (2'F-ANA at 1 3 4 7 11 13 15)", "mean fluorescence intensity [a.u.]": 155}
{"Sequence": "GGTTGGTGTGGTTGG (2'F-ANA at 2 5 7 8 10 14)", "mean fluorescence intensity [a.u.]": 48}
{"Sequence": "GGTTGGTGTGGTTGG (2'F-ANA at 1 3 7 8 9 10 11 13 15)", "mean fluorescence intensity [a.u.]": 79.3}
{"data": "Set 2", "target": "Histone acetyltransferase KAT6A, winged helix 2, GST fusion (KAT6A, Homo sapiens, UniProt Q92794, residues 85-181)", "method": "protein binding microarray", "form": "double-stranded DNA, one strand shown", "sample": "in vitro", "concentration": "not given", "notes": "8-mer, flanks averaged, mean of 2 arrays, mostly near background", "reference": "not given", "reading": "higher = stronger binding", "Target sequence (chain)": "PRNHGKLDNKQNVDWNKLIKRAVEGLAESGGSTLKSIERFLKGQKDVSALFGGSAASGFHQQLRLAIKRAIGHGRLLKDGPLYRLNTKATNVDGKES"}
{"Sequence": "ACTGAGGC", "E-score": 0.0717}
{"Sequence": "TCCCGCCA", "E-score": 0.0579}
{"Sequence": "CCCGGGCG", "E-score": 0.256}
{"data": "Single results of other studies"}
{"Molecule": "CATGGGTC", "target": "Sal-like protein 4, full length isoform B (SALL4, Homo sapiens, UniProt Q9UJQ4-2, residues 1-616)", "assay": "universal PBM", "system": "double-stranded DNA, one strand shown, in vitro", "conditions": "not given, 8-mer, flanks averaged, mean of replicates", "scale": "higher = stronger binding", "quantity": "E-score", "result": -0.228}
{"Molecule": "PhoQ, residues 284 288 289 292 302 303 NLSRDF", "target": "PhoP, residues 12 14 15 18 19 TTLRV (Escherichia coli, UniProt P23836)", "assay": "Sort-seq, item: YFP reporter", "system": "E. coli", "conditions": "PhoQ-PhoP variant library, together with: 10 µM Mg2+", "scale": "reference: high Mg2+ state, higher = stronger signaling", "quantity": "fold induction", "result": 0.893}
{"note": "For quick reference, copied from above (set 2):"}
{"Sequence": "TCCCGCCA", "E-score": 0.0579}
